Results of several laboratories.
Parts stem from different laboratories: compare values within a part only. Changes are numbered by the printed parent chain.
Chain of UniProt P62837 (whole entry, looked up): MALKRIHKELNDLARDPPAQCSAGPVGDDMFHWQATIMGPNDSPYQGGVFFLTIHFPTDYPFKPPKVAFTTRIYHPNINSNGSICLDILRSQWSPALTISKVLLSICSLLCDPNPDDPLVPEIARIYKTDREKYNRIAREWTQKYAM

Study 1 — technique: universal PBM; molecule type: double-stranded DNA, one strand shown; matrix: in vitro; concentration: 600 nM; reading: higher = stronger binding; quantity: E-score
Target: Sal-like protein 4, full length isoform A (SALL4, Homo sapiens, UniProt Q9UJQ4, residues 1-1053)
Chain of UniProt Q9UJQ4 (whole entry, looked up): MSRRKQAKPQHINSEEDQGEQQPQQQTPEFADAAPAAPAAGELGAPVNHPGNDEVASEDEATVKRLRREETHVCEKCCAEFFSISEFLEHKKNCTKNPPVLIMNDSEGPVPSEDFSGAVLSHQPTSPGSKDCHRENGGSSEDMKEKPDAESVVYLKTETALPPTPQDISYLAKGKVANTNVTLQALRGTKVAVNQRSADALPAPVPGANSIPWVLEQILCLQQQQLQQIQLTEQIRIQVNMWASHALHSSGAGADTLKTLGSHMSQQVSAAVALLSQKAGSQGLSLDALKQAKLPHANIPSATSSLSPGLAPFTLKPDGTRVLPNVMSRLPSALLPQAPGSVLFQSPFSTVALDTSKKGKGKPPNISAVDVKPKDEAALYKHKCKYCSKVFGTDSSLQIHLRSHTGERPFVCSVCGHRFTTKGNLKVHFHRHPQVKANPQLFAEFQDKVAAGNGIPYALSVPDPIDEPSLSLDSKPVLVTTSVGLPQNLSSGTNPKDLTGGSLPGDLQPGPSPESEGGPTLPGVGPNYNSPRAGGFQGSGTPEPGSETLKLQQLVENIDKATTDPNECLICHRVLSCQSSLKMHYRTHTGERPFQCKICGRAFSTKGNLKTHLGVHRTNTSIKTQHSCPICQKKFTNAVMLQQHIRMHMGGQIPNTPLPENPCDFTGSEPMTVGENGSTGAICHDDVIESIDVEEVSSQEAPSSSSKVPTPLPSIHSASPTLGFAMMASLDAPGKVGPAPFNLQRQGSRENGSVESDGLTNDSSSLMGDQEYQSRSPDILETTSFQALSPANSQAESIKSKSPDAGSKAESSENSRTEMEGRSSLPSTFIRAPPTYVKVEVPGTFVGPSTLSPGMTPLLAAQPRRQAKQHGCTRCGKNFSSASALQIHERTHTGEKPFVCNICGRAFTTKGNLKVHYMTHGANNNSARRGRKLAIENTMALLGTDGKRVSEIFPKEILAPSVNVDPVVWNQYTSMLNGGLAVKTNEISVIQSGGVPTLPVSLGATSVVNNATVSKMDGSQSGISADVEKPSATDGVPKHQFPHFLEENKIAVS
Notes: 8-mer, flanks averaged, mean of replicates
ACAGACCC: -0.257
ATCGCACA: 0.154
AGTTTATG: 0.299
TGTCCTAA: 0.094
CAGAGCCG: -0.27
TATCCCGA: -0.0901
GCATTCAC: 0.0905
CACTATGG: 0.0267

Study 2 — technique: protein-binding microarray; molecule type: double-stranded DNA, one strand shown; matrix: in vitro; concentration: not given; reading: higher = stronger binding; quantity: E-score
Target: Transcription factor Sp1 (SP1, Homo sapiens, UniProt P08047, residues 1-785, full length assumed)
Chain of UniProt P08047 (whole entry, looked up): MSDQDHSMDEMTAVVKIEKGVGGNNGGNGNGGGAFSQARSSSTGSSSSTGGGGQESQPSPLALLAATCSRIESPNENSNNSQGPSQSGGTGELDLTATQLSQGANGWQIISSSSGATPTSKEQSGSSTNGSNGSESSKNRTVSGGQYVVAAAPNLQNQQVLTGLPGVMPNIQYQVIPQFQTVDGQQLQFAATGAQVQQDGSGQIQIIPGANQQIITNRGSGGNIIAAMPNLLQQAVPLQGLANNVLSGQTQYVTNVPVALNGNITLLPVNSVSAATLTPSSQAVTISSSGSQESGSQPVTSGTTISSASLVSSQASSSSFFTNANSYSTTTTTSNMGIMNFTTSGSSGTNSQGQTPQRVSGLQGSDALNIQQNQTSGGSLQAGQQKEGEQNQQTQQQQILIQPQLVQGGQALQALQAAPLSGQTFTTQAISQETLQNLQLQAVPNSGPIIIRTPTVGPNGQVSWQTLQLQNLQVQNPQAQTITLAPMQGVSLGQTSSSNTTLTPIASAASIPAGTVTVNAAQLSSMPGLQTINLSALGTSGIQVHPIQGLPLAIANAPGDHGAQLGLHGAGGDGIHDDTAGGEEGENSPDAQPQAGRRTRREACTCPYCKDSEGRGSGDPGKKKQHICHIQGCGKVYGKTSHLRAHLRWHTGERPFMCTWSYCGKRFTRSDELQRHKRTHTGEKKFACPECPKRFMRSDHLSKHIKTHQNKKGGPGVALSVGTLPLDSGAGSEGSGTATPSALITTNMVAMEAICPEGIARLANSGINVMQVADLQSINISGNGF
Notes: k-mer, scored over probes, only values ≥0.25
CAAATGGG: 0.254
CAACCCCA: 0.32
ACGTCCCC: 0.3
GGGATGTA: 0.252
ATATAATA: 0.299
AGGGTGGG: 0.456
ACGGGGCG: 0.365
CCCACCCA: 0.473

Study 3 — target: CCNE2, cyclin fold, Cln2 fusion (human); technique: yeast growth competition, sequencing; matrix: yeast; notes: strong parent motif; relative to: not given; reading: higher = stronger binding; quantity: normalised enrichment score
Starting sequence: INSM1 docking peptide (human); PKAIRKLHFEDEV
PMAIRKLHFEDEV [K2M]: 1.1
PKAIRKLLFEDEV [H8L]: 1.79
PKAIQKLHFEDEV [R5Q]: 0.0718
PKAIRFLHFEDEV [K6F]: 0.723
PKAIMKLHFEDEV [R5M]: 0.218
PKAIRKLHFEDQV [E12Q]: 1.41
PKAGRKLHFEDEV [I4G]: 0.0545
PKAIRWLHFEDEV [K6W]: 0.756

Mixed results
B1: MYCBP2 RING domain (UniProt O75592); chain TSLKQDADDMCMICFTEALSAAPAIQLDCSHIFHLQCCRRVLENRWLGPRITFGFISCPICKNKINHIVLKD
B1 (MYCBP2 RING domain) — lacZ reporter activity (UBE2D2 UBC core domain (UniProt P62837); yeast two-hybrid; yeast; mostly zero background; relative to: not given, higher = stronger interaction): 0

Some of these lines once more (study 3):
PKAIQKLHFEDEV [R5Q]: 0.0718
PKAIRKLHFEDQV [E12Q]: 1.41
PKAGRKLHFEDEV [I4G]: 0.0545
